# Results from different studies.
# Every numbered part comes from another study and shows a few of its results, in no order. Substitutions count along the parent as printed.

# Study 1 — target: CCND2, cyclin fold, Cln2 fusion (human); technique: yeast growth competition, sequencing; medium: yeast; setting: weak parent motif; baseline: not given; reading: higher = stronger binding
# Starting sequence: ORC1 docking peptide (human); PRARKRLELGNLG
Variant,normalised enrichment score
PRARKRLELGNLQ [G13Q],-0.0615
PRARKRLERGNLG [L9R],0.325
PRKRKRLELGNLG [A3K],0.192
PRARKRLELGNLM [G13M],0.334
PRNRKRLELGNLG [A3N],0.518
PRARKRLELENLG [G10E],0.408
PRARKRLELSNLG [G10S],0.186
PTARKRLELGNLG [R2T],0.407
PRARQRLELGNLG [K5Q],0.206
PRAFKRLELGNLG [R4F],0.0956
PRARKRLYLGNLG [E8Y],0.307
PRYRKRLELGNLG [A3Y],0.483
PRARKRLELGNLW [G13W],-0.591
PPARKRLELGNLG [R2P],-0.22
PRARKRLECGNLG [L9C],0.26
PRERKRLELGNLG [A3E],0.495
PRARKRLELGMLG [N11M],0.453
PRARKRLELGNLD [G13D],0.114
PRARKRLALGNLG [E8A],0.275
PIARKRLELGNLG [R2I],0.193
CRARKRLELGNLG [P1C],0.652
HRARKRLELGNLG [P1H],0.1
PGARKRLELGNLG [R2G],0.311
PAARKRLELGNLG [R2A],0.161
PRARKRLVLGNLG [E8V],0.234

# Study 2 — technique: RNA Bind-n-Seq; molecule type: RNA; medium: in vitro; tested at: 200 nM; setting: whole 134-nt RNA, ends assumed; with: 150 mM KCl; baseline: input library; reading: higher = stronger binding
# Target: Fragile X messenger ribonucleoprotein 1, C-terminal low-complexity region (Fmr1, Mus musculus, UniProt P35922)
Oligonucleotide,log2 enrichment
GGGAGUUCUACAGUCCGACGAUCCAAGUCCUGUGCUACACAUCGUAUGUACCGAAUCGGGUGGGAAAAAAAGGGAGGGAAAGUAUUAUGUUACGCCGUUCGGAUCUGCACUUCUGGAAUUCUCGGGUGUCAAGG,0.8
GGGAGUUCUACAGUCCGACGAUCUCCUGUGCUACACAUCGUAUGUACCGAAUCAAAUUUUUAAACCCCCCCAAAUUUUUAAAAAAGUAUUAUGUUACGCCGUUCGGAUCUGCAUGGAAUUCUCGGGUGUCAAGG,0.506
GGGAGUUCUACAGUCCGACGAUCCAAGUCCUGUGCUACACAUCGUAUGUACCGAAUCGGGAAAGGGAAAGGGGAAAGGGAAAGUAUUAUGUUACGCCGUUCGGAUCUGCACUUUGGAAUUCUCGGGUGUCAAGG,0.294
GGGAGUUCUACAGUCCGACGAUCGUCCUGUGCUACACAUCGUAUGUACCGAAUCGGGUUUUUUUGGGUUUUUUUGGGAGGGAAAGUAUUAUGUUACGCCGUUCGGAUCUGCACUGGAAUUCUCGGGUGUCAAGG,0.297
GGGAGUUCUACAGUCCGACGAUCUCAUCCUUUUUAAAUUUUUUUUUUUUUUUUGAGACGGUCUCACUCUCACCCAGGCUGGAUUGCAGUGGUGUGAUCUCGACCAACUGCAACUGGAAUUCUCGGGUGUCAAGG,-0.0218
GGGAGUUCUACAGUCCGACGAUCAAGUCCUGUGCUACACAUCGUAUGUACCGAAUCGGGUUUUGGGUUUUGGGUUUUGGGAAAGUAUUAUGUUACGCCGUUCGGAUCUGCACUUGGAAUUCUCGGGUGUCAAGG,0.765
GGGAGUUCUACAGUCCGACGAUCUGGGAGGUGGAUUUUGUUUAUUUUUUUAGCUCAUUUCCAGGGGUGGGAAUUUUUUUUUGAUAUGUGUCAUGAAUAAAGUUGUUUUUGAAAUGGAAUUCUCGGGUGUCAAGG,0.171
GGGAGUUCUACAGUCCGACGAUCUGGCCCUGGUGGCAUGCGGGGAGGAAGAGGUGUCCUCAUGGAUCGUGGUGGUCCCGGUGGAAUGUUCAGAGGUGGCCGUGGUGGAGACAGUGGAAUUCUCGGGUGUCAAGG,-0.0833
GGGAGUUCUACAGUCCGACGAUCAGUCCUGUGCUACACAUCGUAUGUACCGAAUCGGGUUUGGGAAAGGGAAAAAAAGGGAAAGUAUUAUGUUACGCCGUUCGGAUCUGCACUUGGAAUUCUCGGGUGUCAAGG,0.308
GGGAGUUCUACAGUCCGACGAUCCCUGUGCUACACAUCGUAUGUACCGAAUCGGGGUGGGGUUUUUUUGGGGUUUUUUUGGGGAAAGUAUUAUGUUACGCCGUUCGGAUCUGCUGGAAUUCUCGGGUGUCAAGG,0.558

# Study 3 — technique: RNA Bind-n-Seq; molecule type: RNA; medium: in vitro; tested at: 365 nM; baseline: no-protein control; reading: higher = stronger binding
# Target: RNA binding protein fox-1 homolog 2, RRM domain, GST-SBP tag (RBFOX2, Homo sapiens, UniProt O43251-10, residues 100-194)
# Setting: natural RNA segment, single round, ends assumed
# Target sequence (chain): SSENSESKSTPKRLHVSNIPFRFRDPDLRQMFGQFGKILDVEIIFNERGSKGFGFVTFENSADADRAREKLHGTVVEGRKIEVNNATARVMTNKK
Oligonucleotide,RBNS enrichment (R)
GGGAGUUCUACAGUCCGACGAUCAUUAAUCGUUUUAUUUGAGUAGGUAAACAAAUUUGCACACUUUUCCCCAGUGAAUUCCCAACACCUUGACUUCCUCAUUUCAGUGCUAAUAACCUGUUUUGUGUGCAGUUUGGAAUUCUCGGGUGCCAA,0.374
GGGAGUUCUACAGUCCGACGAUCAUACCCUUGUUUUUUAUAGUUGAGAUGUCAAGAAGUUAAAUUGAGGCUUAAUGAGCAUAGGUAGCUUGUCCAAGGUCUCAUGACCAGUCAAGGGCAAGCUGGAGUUAAUAUGGAAUUCUCGGGUGCCAA,0.442
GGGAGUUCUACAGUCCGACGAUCUUAUUCCACUGCUUCUCCCAGCAUUCUGGUGCCUCCAAGCCAUCCCCUCCCACCACCAGCUCUAAGAUUCUAGGAUAGUCUUGAUAACAUUUCAGUACCUGAAUAGAUGUUGGAAUUCUCGGGUGCCAA,0.861
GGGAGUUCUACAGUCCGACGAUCGGAGAGCUGAGUCCUCUGUGGGUUCUGUAUUUAUCCAUUUGGCUUGAAGCUUUGUUUAUAUAUCGGCUGCUUUUUUUUUUUUAAAUGCUCAGACCAUUAUUUAUUUCUUGUGGAAUUCUCGGGUGCCAA,0.573
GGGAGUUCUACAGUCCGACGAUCAUAUAGUGCCCUUGGAAGAAAAUUAGGCCUCAAAUGACAGUAGCAUUGAAGUGUUUGCUGCAGAGUUGAGGGAAACCCCCAGCCACCCUCCCGGAAUCCGAGAUAGGGUGUGGAAUUCUCGGGUGCCAA,0.414
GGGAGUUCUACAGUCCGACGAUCACACCUGCCCCUCCUCACCUAACGGACUGCAGGGCUGAGCAUGUGUCUGAGGUCACACUCUCUGCCCACUCACCUCCUUGGCUGACAUCGGUUGUGUUUGGUGCUGACACUGGAAUUCUCGGGUGCCAA,0.661
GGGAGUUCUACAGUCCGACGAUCUGUGGCCGGCACUGGGCAGCCCCUUGGACUGAGGCAGUUUUGGUGGAUGGGGGACCUCCACUGGUGACAGAGAAGACACCAGGGUUUGGGGGAUGCCUGGGACUUUCCUCUGGAAUUCUCGGGUGCCAA,0.665
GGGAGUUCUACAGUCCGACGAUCCUUUGACUCCCUGACCUCCAGAGCCAGGGUUGUGCCUUAUUGUCCCAUCUGUGGGCCUCAUUCUGCCAAAGCUGGACCAAGGCUAACCUUUCUAAGCUCCCUAACUUGGGUGGAAUUCUCGGGUGCCAA,0.289
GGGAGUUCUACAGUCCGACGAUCGUAGCGUUCCCACUGGAGCUGUGUGCGCGGUGUGCAAAGGCGAAAAGAUAUGUCAUAGUUGCCAUAAAAGAGGCUGAUUGUGAAAUUCUGGUGGACUAGGCAAGGUACAGUGGAAUUCUCGGGUGCCAA,1.16
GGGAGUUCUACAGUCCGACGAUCGGCCCAGUUUGGGCCAGUCCAUUUUUGGAGGUCACUCUUUCCCCCCUCAUCCCCUCACCUCCUUCUCUUUACCCCCUUCACGUACUUCCUUUCUUUCUUCCCUCUGUUAUUGGAAUUCUCGGGUGCCAA,1.17
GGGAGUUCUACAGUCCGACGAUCUCUCUUUUCCUGACCCUCCCUAAAGGCGUUGCCCUCCUAUCCUCCCCUCCCUUGCCCACCCUUGUUUUCUUGGCAUGGGAGGCUUUUCCCUAAGCCACCUGCCCCUAGAGUGGAAUUCUCGGGUGCCAA,1.05
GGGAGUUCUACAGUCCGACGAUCAAGAAGCCUUAAAUGAGAGCUAAUCCAAUCUAGAGAGCGAUGGUGUCAGCAUUUCGGUCUGCAUAUCUGUGUGUCCGUAUCUGCGUUUGUGUGCGUGUACGUGUGCCCCUUGGAAUUCUCGGGUGCCAA,0.74

# Study 4 — technique: EMSA with sequencing; molecule type: double-stranded DNA, one strand shown; medium: in vitro; tested at: 10 and 20 nM; baseline: negative control set to 0; reading: higher = stronger binding
# Target: Hepatocyte nuclear factor 3-alpha (Foxa1, Mus musculus, UniProt P35582, residues 1-468, full length assumed)
# Setting: whole designed probe, mean of two concentrations, ends assumed
# Construct (chain): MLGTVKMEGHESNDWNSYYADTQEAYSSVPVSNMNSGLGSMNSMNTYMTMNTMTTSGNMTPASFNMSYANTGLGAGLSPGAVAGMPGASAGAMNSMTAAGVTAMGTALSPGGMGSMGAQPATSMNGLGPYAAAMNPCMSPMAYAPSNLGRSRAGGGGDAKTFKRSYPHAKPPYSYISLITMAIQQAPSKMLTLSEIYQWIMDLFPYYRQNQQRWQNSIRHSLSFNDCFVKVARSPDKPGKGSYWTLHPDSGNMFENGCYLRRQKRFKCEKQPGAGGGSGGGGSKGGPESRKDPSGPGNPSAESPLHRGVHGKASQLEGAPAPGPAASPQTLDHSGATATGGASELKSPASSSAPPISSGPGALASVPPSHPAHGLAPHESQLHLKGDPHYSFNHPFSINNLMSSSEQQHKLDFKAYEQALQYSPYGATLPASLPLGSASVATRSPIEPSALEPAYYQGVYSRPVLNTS
Oligonucleotide,normalised bound fraction
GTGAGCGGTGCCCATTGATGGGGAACTGAGACACCAAGCATAGCCCAGCACTTAATTTTTAAAAAGGCTTAAAGTGTCACATACAGAAGCTCATTAAGTTAACAAGTGTACAGATGCTTGTTTACTTATTACGCACAATCTTACGAGGCCACACAATCTGAGCAATGATTAGGAGCTCAAAGTTTAGATCCAATCTCAGGACAACATGAAATAAATGACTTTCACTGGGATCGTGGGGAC,0.419 ratio
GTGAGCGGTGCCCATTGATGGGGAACTAAGACACCTTAGATAGGTTTTTTAGAGTTTAGTTTTGAAATATTTTGATAGCTAAACTTTCTTTTTCCAAATGAAATCATAGATGGGCACAATGTAATCTAAAATAATACAGCTCAGTATTAAGCAGAAAGTCCTTCATTGCTTGTGAAACCTGGAAATCAATTATTTCACACCCTTATGATTCTTAGAGACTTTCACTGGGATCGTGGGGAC,-0.0523 ratio
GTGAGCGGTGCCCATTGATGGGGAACGACATGTTAAGGCTTGTTCTATTTATTAGAAAATATATAAAGAGTTCTTGGCTTAAGAACTCTTCTGGCTATCAGCTCCCTGATGTGAAAAAAGTAATTTGCAAGGGGTAGCATGGAGTCTTACTCCCGTGTGACAGACAGCTTAAGAAAGACAATTGGACATCATGTGACTACATGATTCAAGCTAAAGTCCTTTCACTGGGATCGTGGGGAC,-0.0334 ratio
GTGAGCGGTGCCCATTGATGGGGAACATCTTCCCCCTCTTCCTTGCCCCACCAGCTCACCTACGGGGGTTATTTGCACAAAGGAAAATAAATAAAGCCGGCATTCGTTAACGCAGTTCTGGCGCAAACTGCTGTTTGCTCTGCATCTAACATGGTCCTTACGCGAGGCGTGGCTCCGGGAGAGCAAAGCACCGTGTCAGGCGCATGATCCGGGGTGGCCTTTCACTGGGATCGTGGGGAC,0.392 ratio
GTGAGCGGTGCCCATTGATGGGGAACCAGCCTGCAGTGCGCTCAGTTAAACAATTCCAAATCAAGGAATTTTGTCTGATACAAGGAATTTGGGGTGTGTTTTCCTAACATGCACCCTGGGTAAATAGACTGGGGGGGGGGCGCATTTCCTGACCCAGCTGAAGCCAATATGCATTGCGGCCACAAGGTGGCGCGTCTGGGCCTGGCAAACCCCTGTGCTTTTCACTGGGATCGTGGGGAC,0.222 ratio
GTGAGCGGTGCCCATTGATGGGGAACGAAGGAAATAATGGAGCCAACCATGCATATAACCTCAGGGAGAACATTCTAGGTAGAGGGAACAGCAAGTGCAAAGGCCCTGAAGTGGGGGTTTGTTTACCTTCTGCACACAGGCCAGTACAATGTTGCACAATTGGAATGGATGGGAAATGTAAAAGAGAGAAGTTGAAAAGGCCAGGTGCAGTGGCTCATGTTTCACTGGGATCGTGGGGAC,0.407 ratio

# Excerpt of the above (study 1):
Variant,normalised enrichment score
PRARKRLECGNLG [L9C],0.26
PRYRKRLELGNLG [A3Y],0.483
PTARKRLELGNLG [R2T],0.407
